Published values of several laboratories.
“And” joins repeats or separate records; there may be more than shown.
Target: Glycogen synthase kinase-3 beta (GSK3B, Homo sapiens, UniProt P49841)

Structure (SMILES)	assay	system	conditions	scale	endpoint	result
Cc1cccc(O[C@H]2CCC[C@@H](C(C)CNCc3ccncc3)C2)c1 (relative stereo)	enzyme activity, inhibitor	–	10 µM	–	inhibition	-11%
O=C=[N][Ru-4]123([n]4c5ccc(O)cc5c5c6c(c7cc(F)c[n+]1c7c54)C(=O)NC6=O)[S+]1CC[S+]2CC[S+]3CC1 (stereo not shown)	enzyme activity	–	100 nM, human enzyme, with: 10 µM ATP	relative to: untreated	remaining activity	90%
COc1cc(-n2cc3cc(F)cc(C(N)=O)c3n2)cc(Cl)c1C1CC(O)(CCO)Cc2ccccc21 (stereo not shown)	enzyme activity, inhibitor	–	10 µM	–	inhibition	5.35%
NC(=O)C[C@H]1CCc2sc3ncnc(O[C@H]4CC[C@H](N5CCOCC5)CC4)c3c21	enzyme activity, inhibitor	–	10 µM	–	inhibition	4%
C=CC(=O)N1Cc2nc(-c3cc(-c4cc(Cl)cnc4Cl)c(F)cc3F)n(-c3ccncn3)c2C1	cell-free assay, inhibitor	–	1 µM	–	inhibition	-6.8%
C=CC(=O)Nc1cccc(-c2cnc3[nH]cc(C(=O)NC(C)(C)C)c3n2)c1	enzyme activity, inhibitor	–	0.1 µM	–	inhibition	61%
CNC(=O)C[C@H](Cc1ccc(C#N)cc1)NC(=O)c1cc(-c2ccc(CN[C@H](C)c3ccc(C)cc3)o2)ccc1Cl	enzyme activity, inhibitor	–	1 µM	–	activity vs control	99%
O=C(O)CCC(=O)c1cccc(NS(=O)(=O)c2c[nH]c3ncccc23)c1	kinase activity, radiometric	–	10 µM	–	remaining activity	99%
O=C(Cc1ccc(OCc2ccccc2)cc1)NC1(C(=O)O)CCN(C(=O)c2ccc(-c3cccc(Cl)c3)cc2)CC1	enzyme activity, inhibitor	–	10 µM	–	activity vs control	75%
CN1CCN(Cc2ccc(NC(=O)c3cccc(C#Cc4cnc(N)c5ncccc45)c3)cc2C(F)(F)F)CC1	cell-free assay, competition with immobilised ligand	–	0.5 µM	–	remaining binding	63%
CS(=O)(=O)Nc1cccc(-c2csc3cnc(Nc4ccc(N5CCN(CCCCCOc6cccc7c6C(=O)N(C6CCC(=O)NC6=O)C7=O)CC5)cc4)nc23)c1 (stereo not shown)	probe labelling, inhibitor, KiNativ chemoproteomics	MOLT-4	1 µM	–	inhibition	-22.8%
CC(C)=CC1OC(C)(C)C2C=C3C(=O)C(Cl)=CC(O)C3C3C(O)C4OC4C(=O)C132 (stereo not shown)	cell-free assay, competition with immobilised ligand	–	10 µM	–	remaining binding	80%
COc1ccc(-n2nc(/C=C/c3ccc(O)c(OC)c3)cc2/C=C/c2ccc(O)c(OC)c2)cc1	–	–	concentration not given, cell-based	–	activity	inactive
COc1c(Cl)cccc1Nc1c(-c2ccncc2C#C[C@@]2(C)CCCN2C(=O)/C=C/CN(C)C)[nH]c2c1C(=O)NCC2	cell-free assay, competition with immobilised ligand	–	3 µM	–	remaining binding	88%
COc1ccc(O)cc1-c1c[nH]c2ncc(-c3cncc(C(=O)N(C)C)c3)cc12	binding, competition with immobilised ligand	–	0.2 µM	–	inhibition	8.08%
Nc1ncc2c(n1)-c1c([nH]c3ccc(C4=CCOCC4)cc13)CCC2	binding, competition with immobilised ligand	–	1 µM	–	remaining binding	100%
Cc1cccc(-c2ccc3nc(NC(=O)C4CCOCC4)nn3c2)c1	enzyme activity, Dundee kinase panel	–	10 µM	–	remaining activity	73%
CNC(=O)C1CCN(c2cc(C)c(F)cc2NC(=O)c2ccc(-c3cc(O)ccc3C)c(C)c2)CC1	binding, competition with immobilised ligand	–	1 µM	–	remaining binding	94%
COCC12C(=O)NC3C4(C(OC)CC1O)C1CC5(O)C(OC)C(O)C(OC(C)=O)(C1C5OC(=O)c1ccccc1)C3(O)C(OC)C24 (stereo not shown)	kinase activity, inhibitor, ProQinase kinase profiling	–	25 µM	relative to: control	remaining activity	93% and 95%
N[C@H]1CC[C@H](Nc2nccc(-c3cccnc3Oc3ccc(NC(=O)NC4CC4)c4ccccc34)n2)CC1	kinobead competition pulldown	HEK293/HCT116 lysate mixture	10 µM, 1 h, 4 °C	lower = stronger competition	log2 LFQ intensity	28.9 and 29 and 29.3
COc1cc(Nc2nc(C)cc(-c3cnn4nc(OC)ccc34)n2)cc(C(F)(F)F)c1	inhibitor	–	1 µM	relative to: control	remaining activity	100%
CCN1CCN(Cc2ccc(C(=O)Nc3ccc(C)c(NCc4cnc5[nH]ccc5c4OC)c3)cc2C(F)(F)F)CC1	binding, competition with immobilised ligand	–	1 µM	–	remaining binding	78%
COc1ccc(NC(=O)Nc2ccc3c(c2)C(=O)N(C(C)CO)CC(C)C(CN(C)Cc2ccc4c(c2)OCO4)O3)cc1 (stereo not shown)	binding, competition with immobilised ligand	–	10 µM	–	remaining binding	94%
Cc1cccc(-c2ccc3nc(NC(=O)C4CCCCC4)nn3c2)c1	enzyme activity, Dundee kinase panel	–	10 µM	–	remaining activity	71%
CCn1cc(C(=O)O)c(=O)c2c(N)c(F)c(NC3CCCCC3)cc21	kinase activity	–	0.1 µM, with: ATP at Km	–	inhibition	86%

For quick reference, copied from above:
Structure (SMILES)	assay	system	conditions	scale	endpoint	result
CC(C)=CC1OC(C)(C)C2C=C3C(=O)C(Cl)=CC(O)C3C3C(O)C4OC4C(=O)C132 (stereo not shown)	cell-free assay, competition with immobilised ligand	–	10 µM	–	remaining binding	80%
N[C@H]1CC[C@H](Nc2nccc(-c3cccnc3Oc3ccc(NC(=O)NC4CC4)c4ccccc34)n2)CC1	kinobead competition pulldown	HEK293/HCT116 lysate mixture	10 µM, 1 h, 4 °C	lower = stronger competition	log2 LFQ intensity	28.9 and 29 and 29.3
NC(=O)C[C@H]1CCc2sc3ncnc(O[C@H]4CC[C@H](N5CCOCC5)CC4)c3c21	enzyme activity, inhibitor	–	10 µM	–	inhibition	4%
